Measurements from different studies.
Lines come from different studies, so protocols differ. “And” joins repeats or separate records; there may be more than shown. ± gives the spread as reported.

For COc1cc(C2Oc3cc([C@H]4Oc5cc(O)cc(O)c5C(=O)[C@@H]4O)ccc3OC2CO)ccc1O (some centres unmarked), the amount transported was 21.8 ± 7.3% (Caco-2 monolayers; basolateral to apical transport; 100 µg/mL, 2 h).
O=C(CS)NCCCCCC(=O)Nc1cccc2cccnc12 gave an efflux ratio of 0.77 (Caco-2 monolayers; added: indomethacin 140 µM; reference: B-A over A-B).
Cc1ccc(S(=O)(=O)Oc2ccc(NC(=O)c3cnccn3)cc2)cc1 gave a viability of > 80% (HEK-293T; MTT; 100 µM, 24 h; reference: untreated).
COc1cccc(-c2n[nH]c(SCc3ccccn3)n2)c1OC: “structural aberrations per 100 cells” 1 (primary human lymphocytes; 0.063 mg/mL, 20 h).
With COC[C@@H](CC(C)C)NC(=O)c1ccc(C)c(C)c1 the mitotic index was 10.8 (primary human lymphocytes; 225 µg/mL, 4 h).
For CCOC(=O)CCCCCCC/C=C\CCCCCCC(C)O[C@@H]1O[C@H](COC(C)=O)[C@@H](O)[C@H](O)[C@H]1O[C@@H]1O[C@H](COC(C)=O)[C@@H](O)[C@H](O)[C@H]1O (some centres unmarked), the HC50 was ~125 µg/mL (sheep red blood cells; 1 h, 37 °C, 5% DMSO).
CC(C)=CCC[C@@]1(C)C(CC[C@H]2[C@]3(C)CC[C@H](O)C(C)(C)O[C@H]3CC[C@@]2(C)O)=C(C)CC[C@H]1O has an IC50 of > 50 µM (ABCG2-482-R2 transfected HEK293; cell viability, MTT; 72 h).
COc1ccc([C@@H]2CC(=O)c3c(O)cc(O)cc3O2)cc1O gave an amount transported of 3.21 ± 0.3% (Caco-2 monolayers; apical to basolateral transport; 100 µg/mL, 2 h).
For Cc1noc(C)c1Cn1cc(N2C(=O)CN(Cc3cccc(O)c3)C2=O)cn1, “aberrant cells without gaps” read 0.5% (human blood lymphocytes; 296.6 µg/mL, 3 h, with 2% S9).
For O=c1c(-c2ccc(O)cc2)coc2c([C@@H]3O[C@H](CO)[C@@H](O)[C@H](O)[C@H]3O)c(O)ccc12, the amount transported was 36.2 ± 2.5% (Caco-2 monolayers; apical to basolateral transport; 100 µg/mL, 2 h).
The viability of CC(=O)O[C@H]1C(=O)[C@@]2(C)[C@H]([C@H](OC(=O)c3ccccc3)[C@]3(O)C[C@H](OC(=O)[C@H](O)[C@@H](NC(=O)c4ccccc4)c4ccccc4)C(C)=C1C3(C)C)[C@]1(OC(C)=O)CO[C@@H]1C[C@@H]2O is reported as 45.1% and 47.4% (CHP-212 resistant sublines (heterozygous USP7 V517F); cell viability; 0.04115 µM).
SC[C@H]1SC[C@@H]2Sc3ccccc3N21: cytotoxicity “not toxic” (L929; MTT; 100 µg/mL, 24 h).
COc1cc(/C=C/C=C2\SC(=S)NC2=O)cc(OC)c1O has a viability of 1.02 and 1 (HEK-293T; CellTiter-Glo; 10 µM, 24 h, unit not given; reference: untreated).
With C[C@H](CCC(=O)N[C@@H](Cc1ccccc1)C(=O)O)[C@H]1CC[C@H]2[C@@H]3[C@H](O)C[C@@H]4C[C@H](O)CC[C@]4(C)[C@H]3C[C@H](O)[C@]12C the recovery was 98% (HEK293T; LC-MS; serum-free conditioned medium; 100 µM, overnight; reference: non-conditioned medium).
For O=C(O)[C@H]1O[C@@H](Oc2cc3oc(-c4ccccc4)cc(=O)c3c(O)c2O)[C@H](O)[C@@H](O)[C@@H]1O, the amount transported was 2.56% (Caco-2 monolayers; basolateral to apical transport; 100 µg/mL, 2 h).
The EC50 of CC(=O)Nc1c2sscc-2[nH]c1=O is reported as 3 ± 0.3 µM (HEK293T; cytotoxicity).
COc1ccccc1CN[C@H]1CCCN[C@H]1c1ccccc1 has a CC50 of > 25 µM (PBMC).

Excerpt of the above:
With C[C@H](CCC(=O)N[C@@H](Cc1ccccc1)C(=O)O)[C@H]1CC[C@H]2[C@@H]3[C@H](O)C[C@@H]4C[C@H](O)CC[C@]4(C)[C@H]3C[C@H](O)[C@]12C the recovery was 98% (HEK293T; LC-MS; serum-free conditioned medium; 100 µM, overnight; reference: non-conditioned medium).
